# Assay results from different studies.
# Each numbered part is a random draw from the data of one study; scales do not carry over between parts.
# UniProt Q9UQ88, sequence (whole entry, looked up): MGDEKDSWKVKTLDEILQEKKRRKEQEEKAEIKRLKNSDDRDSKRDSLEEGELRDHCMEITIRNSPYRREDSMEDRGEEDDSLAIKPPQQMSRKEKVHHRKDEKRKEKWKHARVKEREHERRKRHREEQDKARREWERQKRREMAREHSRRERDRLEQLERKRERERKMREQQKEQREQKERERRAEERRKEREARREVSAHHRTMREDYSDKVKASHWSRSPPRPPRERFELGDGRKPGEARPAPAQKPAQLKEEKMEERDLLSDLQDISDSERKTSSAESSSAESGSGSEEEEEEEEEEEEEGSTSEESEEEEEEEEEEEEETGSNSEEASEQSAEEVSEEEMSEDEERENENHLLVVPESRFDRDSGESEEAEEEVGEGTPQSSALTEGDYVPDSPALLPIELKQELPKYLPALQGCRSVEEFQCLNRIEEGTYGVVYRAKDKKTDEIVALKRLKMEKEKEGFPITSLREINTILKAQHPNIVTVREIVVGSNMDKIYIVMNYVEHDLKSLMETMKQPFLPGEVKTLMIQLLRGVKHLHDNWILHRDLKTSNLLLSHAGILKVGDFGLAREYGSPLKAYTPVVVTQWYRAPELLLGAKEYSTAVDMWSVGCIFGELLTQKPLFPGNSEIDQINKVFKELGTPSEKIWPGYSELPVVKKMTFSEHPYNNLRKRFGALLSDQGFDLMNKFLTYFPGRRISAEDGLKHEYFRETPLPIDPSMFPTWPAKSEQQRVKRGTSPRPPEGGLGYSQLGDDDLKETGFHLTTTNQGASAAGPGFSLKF
# UniProt Q96L34, sequence (whole entry, looked up): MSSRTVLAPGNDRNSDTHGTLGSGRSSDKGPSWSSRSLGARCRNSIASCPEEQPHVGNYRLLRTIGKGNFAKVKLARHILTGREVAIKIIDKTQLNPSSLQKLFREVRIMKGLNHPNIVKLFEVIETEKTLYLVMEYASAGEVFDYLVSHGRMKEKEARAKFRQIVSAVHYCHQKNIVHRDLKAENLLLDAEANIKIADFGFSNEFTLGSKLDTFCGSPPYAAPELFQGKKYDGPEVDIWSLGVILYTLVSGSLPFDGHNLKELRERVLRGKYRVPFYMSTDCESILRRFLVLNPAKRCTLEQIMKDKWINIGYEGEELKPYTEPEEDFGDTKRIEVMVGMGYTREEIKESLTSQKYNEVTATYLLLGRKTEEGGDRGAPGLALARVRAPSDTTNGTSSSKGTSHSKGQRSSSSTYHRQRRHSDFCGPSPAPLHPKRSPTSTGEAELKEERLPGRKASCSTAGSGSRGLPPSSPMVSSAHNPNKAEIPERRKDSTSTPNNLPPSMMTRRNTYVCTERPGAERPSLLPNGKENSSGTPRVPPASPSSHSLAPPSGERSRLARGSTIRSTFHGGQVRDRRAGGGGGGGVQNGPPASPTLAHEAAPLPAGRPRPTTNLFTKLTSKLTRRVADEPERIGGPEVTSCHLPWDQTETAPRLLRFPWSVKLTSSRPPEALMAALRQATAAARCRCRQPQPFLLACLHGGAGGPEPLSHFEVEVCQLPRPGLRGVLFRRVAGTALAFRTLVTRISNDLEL
# UniProt Q6ZN16, sequence (whole entry, looked up): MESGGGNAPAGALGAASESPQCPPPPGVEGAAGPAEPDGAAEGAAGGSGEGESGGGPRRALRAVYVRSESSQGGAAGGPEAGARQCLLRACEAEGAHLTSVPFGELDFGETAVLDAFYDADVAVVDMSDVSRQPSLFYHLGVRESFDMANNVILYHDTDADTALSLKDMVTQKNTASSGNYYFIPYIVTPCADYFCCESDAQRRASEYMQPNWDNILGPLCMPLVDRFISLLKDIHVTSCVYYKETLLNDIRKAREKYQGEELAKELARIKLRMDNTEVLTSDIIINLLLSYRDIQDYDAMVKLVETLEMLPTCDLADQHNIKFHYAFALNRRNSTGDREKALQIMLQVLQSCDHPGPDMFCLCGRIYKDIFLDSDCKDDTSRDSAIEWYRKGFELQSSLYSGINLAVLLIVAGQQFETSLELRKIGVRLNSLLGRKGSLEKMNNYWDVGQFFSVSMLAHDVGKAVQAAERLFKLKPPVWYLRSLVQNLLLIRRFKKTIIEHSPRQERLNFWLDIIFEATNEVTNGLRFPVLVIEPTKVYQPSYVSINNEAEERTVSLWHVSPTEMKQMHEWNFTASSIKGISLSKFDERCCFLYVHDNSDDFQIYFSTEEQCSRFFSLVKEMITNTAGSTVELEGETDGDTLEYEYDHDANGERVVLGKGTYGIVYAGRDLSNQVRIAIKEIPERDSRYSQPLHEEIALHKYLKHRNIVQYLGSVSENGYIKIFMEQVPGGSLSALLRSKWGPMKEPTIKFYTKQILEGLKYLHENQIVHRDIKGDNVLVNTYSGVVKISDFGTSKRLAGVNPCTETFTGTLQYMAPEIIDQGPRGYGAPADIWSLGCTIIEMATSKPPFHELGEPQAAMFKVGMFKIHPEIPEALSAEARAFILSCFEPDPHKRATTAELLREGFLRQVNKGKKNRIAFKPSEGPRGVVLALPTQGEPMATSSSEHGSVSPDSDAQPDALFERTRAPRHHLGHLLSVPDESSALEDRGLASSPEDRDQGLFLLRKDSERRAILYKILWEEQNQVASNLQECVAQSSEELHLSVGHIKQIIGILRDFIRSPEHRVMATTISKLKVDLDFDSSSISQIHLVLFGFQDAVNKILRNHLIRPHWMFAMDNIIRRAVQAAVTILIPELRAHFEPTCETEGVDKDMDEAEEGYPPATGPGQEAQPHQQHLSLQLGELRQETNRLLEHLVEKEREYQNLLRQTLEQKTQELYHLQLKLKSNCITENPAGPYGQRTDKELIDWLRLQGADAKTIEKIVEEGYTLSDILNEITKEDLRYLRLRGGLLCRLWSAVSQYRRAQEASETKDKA
# UniProt P42336, sequence (whole entry, unmodified, looked up): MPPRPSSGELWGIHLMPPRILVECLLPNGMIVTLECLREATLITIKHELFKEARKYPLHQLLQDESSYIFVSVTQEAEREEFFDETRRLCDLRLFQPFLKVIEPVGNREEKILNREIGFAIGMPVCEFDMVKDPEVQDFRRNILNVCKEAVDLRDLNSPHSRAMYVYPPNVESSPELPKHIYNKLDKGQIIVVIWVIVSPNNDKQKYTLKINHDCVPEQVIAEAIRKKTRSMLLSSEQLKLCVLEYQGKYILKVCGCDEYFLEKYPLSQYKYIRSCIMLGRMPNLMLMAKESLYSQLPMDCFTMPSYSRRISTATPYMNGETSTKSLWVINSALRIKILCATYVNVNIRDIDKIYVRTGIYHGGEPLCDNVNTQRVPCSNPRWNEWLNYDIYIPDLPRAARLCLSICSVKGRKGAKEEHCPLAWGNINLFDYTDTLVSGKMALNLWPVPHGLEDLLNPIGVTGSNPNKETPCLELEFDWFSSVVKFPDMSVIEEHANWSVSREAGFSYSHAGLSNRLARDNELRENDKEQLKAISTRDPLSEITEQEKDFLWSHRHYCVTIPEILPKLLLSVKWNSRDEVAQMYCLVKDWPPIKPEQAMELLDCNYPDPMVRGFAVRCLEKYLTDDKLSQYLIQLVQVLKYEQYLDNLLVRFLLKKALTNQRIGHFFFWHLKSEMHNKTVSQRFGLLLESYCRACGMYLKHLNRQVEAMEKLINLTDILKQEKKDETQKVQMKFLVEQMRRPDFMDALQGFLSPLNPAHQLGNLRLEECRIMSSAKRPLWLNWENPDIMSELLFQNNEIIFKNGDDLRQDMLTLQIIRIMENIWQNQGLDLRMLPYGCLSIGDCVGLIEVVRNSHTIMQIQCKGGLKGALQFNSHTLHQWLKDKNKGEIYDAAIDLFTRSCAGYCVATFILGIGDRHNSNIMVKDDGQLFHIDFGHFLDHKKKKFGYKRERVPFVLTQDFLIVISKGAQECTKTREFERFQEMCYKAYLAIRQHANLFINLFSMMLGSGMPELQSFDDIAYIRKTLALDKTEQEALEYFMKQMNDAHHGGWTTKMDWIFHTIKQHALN
# UniProt P36896, sequence (whole entry, looked up): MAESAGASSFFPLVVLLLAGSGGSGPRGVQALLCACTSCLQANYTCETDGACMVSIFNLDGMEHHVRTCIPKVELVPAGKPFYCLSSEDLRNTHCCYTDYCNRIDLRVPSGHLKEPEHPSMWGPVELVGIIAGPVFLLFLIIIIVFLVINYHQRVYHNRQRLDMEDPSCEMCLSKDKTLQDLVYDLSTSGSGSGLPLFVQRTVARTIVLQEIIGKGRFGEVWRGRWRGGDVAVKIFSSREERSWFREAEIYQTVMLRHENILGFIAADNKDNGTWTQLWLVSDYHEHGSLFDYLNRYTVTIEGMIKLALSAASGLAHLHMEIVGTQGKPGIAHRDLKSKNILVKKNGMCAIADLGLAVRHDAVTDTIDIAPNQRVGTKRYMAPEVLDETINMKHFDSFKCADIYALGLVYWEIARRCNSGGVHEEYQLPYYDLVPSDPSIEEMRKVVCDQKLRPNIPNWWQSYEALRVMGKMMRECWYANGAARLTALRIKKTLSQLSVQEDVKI

# Sample 1 — host: mouse; matrix: microsomes or S9; concentration: 2 µM; time: 0.5 h
SMILES,remaining compound [%]
COc1cc(C(=O)Nc2ncc3c(n2)CC(c2ccc(C)cc2)CC3=O)cc(OC)c1OC (stereo not shown),12.9
CC(=O)Nc1ccccc1C(c1ccc(C)o1)c1ccc(C)o1,2.16
COC(=O)c1c(NC(=O)c2ccco2)sc2c1CCC2,1.14

# Sample 2 — method: RNA Bind-n-Seq; molecule type: RNA; matrix: in vitro; concentration: 200 nM; notes: whole 134-nt RNA, ends assumed; added: 150 mM KCl; baseline: input library; reading: higher = stronger binding
# Target: Fragile X messenger ribonucleoprotein 1, C-terminal low-complexity region (Fmr1, Mus musculus, UniProt P35922)
# Constant ends, left off below: GGGAGUUCUACAGUCCGACGAUC … UGGAAUUCUCGGGUGUCAAGG
Oligonucleotide,log2 enrichment
AGUCCUGUGCUACACAUCGUAUGUACCGAAUCGGGGAAAAAGGGGAGGGGAAAGGGGAAAGUAUUAUGUUACGCCGUUCGGAUCUGCACU,0.275
UGGCCCUGGUGGCAUGCGGGGAGGAAGAGGUGGCCUCAUGGAUCGUGGUGGUCCCGGUGGAAGGUUCAGAGGUGGCCGUGGUGGAGACAG,0.248
CACAGACAACACGCACCCACACAGACACAGAGGGAAGGGGUUGGGAUGGGGACAGGCUGCACAGCAGGGCGGGGUAGGACCCCAGCCCCU,1.28
UUAAGACAGUCAUUUUAAAAUGGUGGCUGAAUUUCCCAACCCACCCCCAAACUAAACACUAAGUUUAAUUUUCAGCUCCUCUGUUGGACA,0.028
ACCAUGCAGGUGGGCAUCUUUGGGAAGUGGGGCAAGGGGGGGAUAGGGAGGGGGGUAAGACUUUGGGAACAGGUGGUCCCAGGUCGUUUC,0.94
AAGUCCUGUGCUACACAUCGUAUGUACCGAAUCGGGCCCCGGGGCCCCGGCCCCGGGAAAGUAUUAUGUUACGCCGUUCGGAUCUGCACU,-1.99
UCCUGUGCUACACAUCGUAUGUACCGAAUCGGGGUUUUUUUGGGGUUUGGGGAAAGGGGAAAGUAUUAUGUUACGCCGUUCGGAUCUGCA,0.809
GCAGGAAGUAAAAACAAAUGGAAAUGCUUCGGAUAGUGGCAGGGGUGGGGGUUGCUAAGGAAGGGGUGGGAUGGGAGUGGGUAAAGAGUU,-0.161

# Sample 3 — concentration: 1 µM
# SMILES: Cc1cc(NC(=O)c2cccc(S(F)(F)(F)(F)F)c2)cc(-n2ccn3nc(-c4cccnc4)cc23)c1
target,observed,method,remaining binding
"MYLK4 (Homo sapiens, UniProt Q86YV6)",cell-free assay,competition with immobilised ligand,91.4%
"EPHA7 (Homo sapiens, UniProt Q15375)",cell-free assay,competition with immobilised ligand,91.2%
"CSNK1D (Homo sapiens, UniProt P48730)",cell-free assay,competition with immobilised ligand,100%
"CDK17 (Homo sapiens, UniProt Q00537)",cell-free assay,competition with immobilised ligand,83.8%
"MET (Homo sapiens, UniProt P08581, Y1235D)",cell-free assay,competition with immobilised ligand,100%
"FLT3 (Homo sapiens, UniProt P36888, D835H)",cell-free assay,competition with immobilised ligand,99.9%
"CDK11A (Homo sapiens, UniProt Q9UQ88)",cell-free assay,competition with immobilised ligand,95.4%
"MARK4 (Homo sapiens, UniProt Q96L34)",cell-free assay,competition with immobilised ligand,84.8%
"PIK3CA (Homo sapiens, UniProt P42336, Q546K)",cell-free assay,competition with immobilised ligand,100%
"EGFR (Homo sapiens, UniProt P00533, del746-750)",cell-free assay,competition with immobilised ligand,100%
"CDK19 (Homo sapiens, UniProt Q9BWU1)",,competition binding,84.1%
"EGFR (Homo sapiens, UniProt P00533, T790M)",cell-free assay,competition with immobilised ligand,100%
"BMPR1B (Homo sapiens, UniProt O00238)",cell-free assay,competition with immobilised ligand,100%
"MAP3K15 (Homo sapiens, UniProt Q6ZN16)",cell-free assay,competition with immobilised ligand,100%
"Ribosomal protein S6 kinase alpha-4, N-terminal kinase domain (RPS6KA4, Homo sapiens, UniProt O75676)",cell-free assay,competition with immobilised ligand,100%
"ACVR1B (Homo sapiens, UniProt P36896)",cell-free assay,competition with immobilised ligand,100%
"MAP3K6 (Homo sapiens, UniProt O95382)",cell-free assay,competition with immobilised ligand,62.7%

# Sample 4 — method: RNA Bind-n-Seq; molecule type: RNA; matrix: in vitro; concentration: not given; notes: 4-mer, random 30-nt RNA, single round; added: RocA, ADP, phosphate; baseline: input library; reading: higher = stronger binding
# Target: Eukaryotic initiation factor 4A-I (EIF4A1, Homo sapiens, UniProt P60842, residues 1-406, full length assumed)
# UniProt P60842, sequence (whole entry, looked up): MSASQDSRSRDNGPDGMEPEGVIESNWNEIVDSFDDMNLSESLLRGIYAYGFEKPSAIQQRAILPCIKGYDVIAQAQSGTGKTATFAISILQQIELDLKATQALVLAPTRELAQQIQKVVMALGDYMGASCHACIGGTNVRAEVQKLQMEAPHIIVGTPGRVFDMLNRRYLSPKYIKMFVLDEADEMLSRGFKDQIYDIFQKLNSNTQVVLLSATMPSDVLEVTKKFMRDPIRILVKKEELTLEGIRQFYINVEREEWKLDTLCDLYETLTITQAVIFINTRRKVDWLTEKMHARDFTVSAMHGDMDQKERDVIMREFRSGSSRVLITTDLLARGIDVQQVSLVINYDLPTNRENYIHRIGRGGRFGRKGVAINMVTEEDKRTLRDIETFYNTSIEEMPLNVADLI
Oligonucleotide,4-mer enrichment
UCAG,0.798 fold
CUGA,1.01 fold
GGCC,0.646 fold
AAUA,1.07 fold
CGUC,0.656 fold
AACG,0.878 fold
CAUC,0.587 fold
CCUA,0.604 fold

# Further values, each from its own experiment
Compound,target or system,test,test system,setting,endpoint,value
CC(C)[C@H]1CC[C@H](C(=O)N[C@H](Cc2ccccc2)C(=O)O)CC1,A-375,,,"100 µM, 18 h",viability,86.7%
CC(C)C[C@@H]1NC(=O)[C@@H](C)NC(=O)[C@H](CCC(=O)N2CCCC2)NC(=O)[C@@H](C(C)C)NC(=O)[C@H](C(C)C)NC(=O)[C@H](CC(C)C)NC(=O)[C@@H](CC(C)C)NC1=O,,PRP chromatography estimate,"1,9-decadiene/PBS",pH 7.4,logD,-0.989
NS(=O)(=O)c1cc2c(cc1Cl)NCNS2(=O)=O,A-375,,,"100 µM, 18 h",viability,88.2%
CC(C)C[C@@H]1NC(=O)[C@H](C)NC(=O)[C@H](CC(C)C)NC(=O)[C@@H](CC(C)C)NC(=O)[C@H](CC(C)C)NC(=O)[C@H](C)NC(=O)[C@@H](CC(C)C)NC1=O,,PRP chromatography estimate,"1,9-decadiene/PBS",pH 7.4,logD,-0.341

# Excerpt of the above (sample 3):
target,observed,method,remaining binding
"MAP3K15 (Homo sapiens, UniProt Q6ZN16)",cell-free assay,competition with immobilised ligand,100%
"EGFR (Homo sapiens, UniProt P00533, del746-750)",cell-free assay,competition with immobilised ligand,100%
